Measurements pooled from the literature.
Every numbered part comes from another study and shows a few of its results, in no order.

Study 1
Target: Transcription factor Sp1 (SP1, Homo sapiens, UniProt P08047, residues 1-785, full length assumed)
UniProt P08047, sequence (whole entry, looked up): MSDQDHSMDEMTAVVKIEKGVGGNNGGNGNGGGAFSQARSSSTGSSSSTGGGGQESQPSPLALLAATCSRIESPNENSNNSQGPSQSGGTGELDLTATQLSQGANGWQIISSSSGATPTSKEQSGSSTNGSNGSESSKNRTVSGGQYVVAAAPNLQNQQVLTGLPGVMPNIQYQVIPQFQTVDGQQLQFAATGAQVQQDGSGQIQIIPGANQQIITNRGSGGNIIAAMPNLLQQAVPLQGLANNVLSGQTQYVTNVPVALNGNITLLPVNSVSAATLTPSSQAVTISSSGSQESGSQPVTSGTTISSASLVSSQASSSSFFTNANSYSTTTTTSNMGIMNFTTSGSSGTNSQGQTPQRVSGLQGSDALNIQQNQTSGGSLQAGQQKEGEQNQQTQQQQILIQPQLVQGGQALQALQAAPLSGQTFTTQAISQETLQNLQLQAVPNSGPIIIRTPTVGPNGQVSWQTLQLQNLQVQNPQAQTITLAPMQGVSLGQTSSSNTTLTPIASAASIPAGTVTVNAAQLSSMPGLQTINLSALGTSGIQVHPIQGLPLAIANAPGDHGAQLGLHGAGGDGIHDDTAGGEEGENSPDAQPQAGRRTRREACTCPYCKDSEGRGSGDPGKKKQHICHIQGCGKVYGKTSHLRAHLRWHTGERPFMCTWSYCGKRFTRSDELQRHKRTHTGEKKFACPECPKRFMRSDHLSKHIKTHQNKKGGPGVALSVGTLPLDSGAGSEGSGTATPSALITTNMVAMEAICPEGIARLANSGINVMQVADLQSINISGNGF
Technique: protein-binding microarray
Molecule type: double-stranded DNA, one strand shown
Sample: in vitro
Concentration: not given
Setting: k-mer, scored over probes, only values ≥0.25
Reading: higher = stronger binding
| Sequence | E-score |
| --- | --- |
| CCTCCCCA | 0.463 |
| ATATTAGG | 0.262 |
| CCGCCCTA | 0.266 |
| AGGGGCAT | 0.265 |

Study 2
Target: Histone acetyltransferase KAT6A, winged helix 1, GST fusion (KAT6A, Homo sapiens, UniProt Q92794, residues 1-85)
Technique: protein binding microarray
Molecule type: double-stranded DNA, one strand shown
Sample: in vitro
Concentration: not given
Setting: 8-mer, flanks averaged, mean of 2 arrays, mostly near background
Baseline: not given
Reading: higher = stronger binding
Residues (chain): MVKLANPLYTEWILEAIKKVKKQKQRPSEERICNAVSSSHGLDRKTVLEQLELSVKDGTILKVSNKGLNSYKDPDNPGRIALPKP
| Sequence | E-score |
| --- | --- |
| CTGAAATA | -0.185 |
| AGCAAGTG | -0.265 |
| AAGTGCGA | 0.0648 |
| GCTCTCAC | 0.027 |
| TAAATAGA | -0.0884 |
| AGGATCCC | 0.0229 |
| CAATTTTC | -0.242 |
| ACCCTACC | 0.0106 |

Study 3
Target: Replicase polyprotein 1ab, polymerase (rep, Severe acute respiratory syndrome coronavirus 2, UniProt P0DTD1)
Effect on: enzyme activity
Action: inhibitor
Concentration: 20 µM
| Compound | inhibition [%] |
| --- | --- |
| CC(C)C(=O)Nc1ncc(-c2cc(C(F)F)nn2-c2c(Cl)cccc2Cl)s1 | 19.3 |
| CCCCCCCCCCCCCCC[C@@H](O)[C@@H](N)CO | -2.3 |
| Cc1cnc(Nc2ccc(N3CCN(C)CC3)cc2)nc1Nc1cccc(S(=O)(=O)NC(C)(C)C)c1 | 6.06 |
| CCOC(=O)C1=C(C)NC(C)=C(C(=O)OC)C1c1cccc(Cl)c1Cl (stereo not drawn) | 6.95 |
| Clc1ccc(C2(c3ccc(-c4cn[nH]c4)cc3)CCNCC2)cc1 | 2.3 |
| COc1ccccc1N1CCN(CCCCN2C(=O)CCC2=O)CC1 | 3.57 |
| C#C[C@]1(O)CC[C@H]2[C@@H]3CCc4cc(O)ccc4[C@H]3CC[C@@]21C | 6.46 |
| CN(C)c1cc(CNCC(C)(C)C)c(O)c2c1C[C@H]1C[C@H]3[C@H](N(C)C)C(O)=C(C(N)=O)C(=O)[C@@]3(O)C(O)=C1C2=O | 12.7 |
| COc1cc2cc(c1Cl)N(C)C(=O)C[C@H](OC(=O)C(C)C)[C@]1(C)O[C@@H]1[C@H](C)[C@@H]1C[C@@](O)(NC(=O)O1)[C@H](OC)/C=C/C=C(\C)C2 | 3.72 |
| C[n+]1c2cc(N)ccc2cc2ccc(N)cc21 | -46.2 |
| NC(=O)c1ccc(N(C(N)=O)c2c(F)cccc2F)nc1-c1ccc(F)cc1F | -2.31 |
| NC1CCN(c2c(F)cc3c(=O)c(C(=O)O)cn(C4CC4)c3c2Cl)C1 (stereo not drawn) | -4.29 |
| O=C(Nc1cccnn1)N1CCC(=Cc2cccc(Oc3ccc(C(F)(F)F)cn3)c2)CC1 | -2.77 |
| CCCCNc1nc(N)c2[nH]c(=O)n(Cc3ccc(OCCN(C)C)nc3)c2n1 | -10.9 |
| CC1(C)O[C@@H]2[C@@H](CO[C@@]3(COS(N)(=O)=O)OC(C)(C)O[C@@H]23)O1 | -0.25 |
| C[C@H](O)C(=O)Nc1c(I)c(C(=O)NC(CO)CO)c(I)c(C(=O)NC(CO)CO)c1I | 5.71 |
| CC1(C)[C@@H](OC(=O)CCC(=O)O)CC[C@]2(C)[C@H]3C(=O)C=C4[C@@H]5C[C@@](C)(C(=O)O)CC[C@]5(C)CC[C@@]4(C)[C@]3(C)CC[C@@H]12 | 15.8 |
| Cc1cc(-c2nc(C(=O)Nc3cn(C4CCOCC4)nc3C(N)=O)co2)ccn1 | -0.78 |
| O=c1c2ccccc2[se]n1-c1ccccc1 | 22.9 |
| O=C(Nc1ccccc1F)N[C@H]1N=C(c2ccccc2)c2ccccc2NC1=O | 0.29 |
| COc1ccccc1CC(=N)N1C[C@@H]2C(=O)CCC(c3ccccc3)(c3ccccc3)[C@@H]2C1 | -2.12 |
| CC[C@@H](C)CNCC(=O)N1CCc2sccc2[C@@H]1COc1cccc(C)c1 | -12.5 |
| COc1ccc(CN2CCNCC2)c(OC)c1OC | 5.17 |
| N#CCC1(n2cc(-c3ncnc4[nH]ccc34)cn2)CN(C2CCN(C(=O)c3ccnc(C(F)(F)F)c3F)CC2)C1 | 1.35 |
| N#CC(C#N)=Cc1ccc(O)c(O)c1 | 31.3 |

Study 4
Target: Ras GTPase-activating protein-binding protein 1, full length (G3BP1, Homo sapiens, UniProt Q13283)
UniProt Q13283, sequence (whole entry, looked up): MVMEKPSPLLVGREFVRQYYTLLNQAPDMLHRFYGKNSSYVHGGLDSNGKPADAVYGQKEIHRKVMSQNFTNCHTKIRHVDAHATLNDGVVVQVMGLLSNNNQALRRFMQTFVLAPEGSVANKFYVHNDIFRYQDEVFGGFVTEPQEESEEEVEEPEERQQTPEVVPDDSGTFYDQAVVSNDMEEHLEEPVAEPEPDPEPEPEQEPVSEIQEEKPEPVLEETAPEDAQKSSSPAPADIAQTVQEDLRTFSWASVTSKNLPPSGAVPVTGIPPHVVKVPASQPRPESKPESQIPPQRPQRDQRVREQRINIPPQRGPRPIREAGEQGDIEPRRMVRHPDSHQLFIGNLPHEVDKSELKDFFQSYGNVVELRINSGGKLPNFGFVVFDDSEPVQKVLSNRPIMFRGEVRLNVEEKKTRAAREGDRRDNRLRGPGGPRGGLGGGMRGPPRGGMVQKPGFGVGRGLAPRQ
Technique: RNA Bind-n-Seq
Molecule type: RNA
Sample: in vitro
Concentration: 200 nM
Setting: whole 134-nt RNA, ends assumed
Together with: 150 mM KCl
Baseline: input library
Reading: higher = stronger binding
All sequences stand within: GGGAGUUCUACAGUCCGACGAUC … UGGAAUUCUCGGGUGUCAAGG
| Sequence | log2 enrichment |
| --- | --- |
| CAAGUCCUGUGCUACACAUCGUAUGUACCGAAUCGGGAGGGAAAAAGGGAAAGGGAAAGUAUUAUGUUACGCCGUUCGGAUCUGCACUUC | 0.578 |
| UCGGAGGUGGAUUUUGUUUAUUUUUUUAGCUCAUUUCCAGGGGUGGGAAUUUUUUUUUAAUAUGUGUCAUGAAUAAAGUUGUUUUUGAAA | -0.779 |
| AGUCCUGUGCUACACAUCGUAUGUACCGAAUCGGGAAAAAGGGAAAAAAAGGGAGGGAAAGUAUUAUGUUACGCCGUUCGGAUCUGCACU | 0.0949 |
| UCCUGUGCUACACAUCGUAUGUACCGAAUCGGGGUGGGGUUUUUGGGGAAAAAAAGGGGAAAGUAUUAUGUUACGCCGUUCGGAUCUGCA | 0.627 |
| GCAGGAAGUAAAAACAAAUGGAAAUGCUUCGGAUAGUGGCAGGGGUGGGGGUUGCUAAGGAAAGGGUGGGAUGGGAGUGGGAAAAGAGUU | 0.733 |
| GUCCUGUGCUACACAUCGUAUGUACCGAAUCAAACCCCCAAAUUUUUAAACCCCCAAAAAAGUAUUAUGUUACGCCGUUCGGAUCUGCAC | -0.178 |
| ACCAUGCAGGUGGGCAUCUUUGGGAAGUGGGGCAAGGGGGGGAUAGGGAGGGGGGUAACACUAAAGGAACAGGUGGUCCCAGGUCGUUUC | 1.57 |
| UGUUUAUCCAACAUAUGAUUUUGCCUGCCCCAUAGUUGACAGCAUCGAAGGUGUUACACAUGCCCUGAGAACAACAGAAUACCAUGACAG | 0.402 |

Study 5
Organism: Vesicular stomatitis virus
Effect on: pseudovirus infection
Technique: FDA-approved drug library screen
Concentration: concentration not given
Setting: SARS-CoV-2 spike pseudotype
Baseline: vehicle
| SMILES | GFP-positive cells |
| --- | --- |
| O=C(O)CCCN1CCC(O[C@@H](c2ccc(Cl)cc2)c2ccccn2)CC1.O=S(=O)(O)c1ccccc1 | 99.2% |
| Cl.Cn1c(CCCC(=O)O)nc2cc(N(CCCl)CCCl)ccc21 | 101% |
| Cc1cn(-c2cc(NC(=O)c3ccc(C)c(Nc4nccc(-c5cccnc5)n4)c3)cc(C(F)(F)F)c2)cn1 | 59.9% |
| C=CCN1CC[C@]23c4c5ccc(O)c4O[C@H]2[C@@H](OCCOCCOCCOCCOCCOCCOCCOC)CC[C@@]3(O)[C@H]1C5.O=C(O)C(=O)O | 85.9% |

Study 6
Target: Replicase polyprotein 1ab, main protease (rep, Severe acute respiratory syndrome coronavirus 2, UniProt P0DTD1)
Effect on: enzyme activity
Action: inhibitor
Setting: with DTT
| Structure (SMILES) | IC50 [nM] |
| --- | --- |
| COc1ccnc(C[S+]([O-])c2nc3ccc(OC(F)F)cc3[nH]2)c1OC (stereo not drawn) | 1100 |
| CC1=C(/C=C/C(C)=C/C=C/C(C)=C/C(=O)O)C(C)(C)CCC1 | 17100 |
| CC(CN1CC(=O)NC(=O)C1)N1CC(=O)NC(=O)C1 (stereo not drawn) | 190 |
| COC(=O)CC[C@H](NC(=O)[C@H](CC(=O)OC)NC(=O)OCc1ccccc1)C(=O)N[C@H](C(=O)N[C@@H](CC(=O)OC)C(=O)CF)C(C)C | 10 |
| CC(=O)[O][Hg][c]1ccccc1 | 2000 |

A few entries again (study 3):
| Compound | inhibition [%] |
| --- | --- |
| NC(=O)c1ccc(N(C(N)=O)c2c(F)cccc2F)nc1-c1ccc(F)cc1F | -2.31 |
| O=C(Nc1ccccc1F)N[C@H]1N=C(c2ccccc2)c2ccccc2NC1=O | 0.29 |
| C#C[C@]1(O)CC[C@H]2[C@@H]3CCc4cc(O)ccc4[C@H]3CC[C@@]21C | 6.46 |
| N#CC(C#N)=Cc1ccc(O)c(O)c1 | 31.3 |
| CC[C@@H](C)CNCC(=O)N1CCc2sccc2[C@@H]1COc1cccc(C)c1 | -12.5 |
| N#CCC1(n2cc(-c3ncnc4[nH]ccc34)cn2)CN(C2CCN(C(=O)c3ccnc(C(F)(F)F)c3F)CC2)C1 | 1.35 |
| Cc1cnc(Nc2ccc(N3CCN(C)CC3)cc2)nc1Nc1cccc(S(=O)(=O)NC(C)(C)C)c1 | 6.06 |
